Results collected from several papers.
Parts stem from different laboratories: compare values within a part only. Values joined by “and” are separate records of one study, mostly repeats; a detail may differ.
Chain of UniProt P22607 (whole entry, unmodified, looked up): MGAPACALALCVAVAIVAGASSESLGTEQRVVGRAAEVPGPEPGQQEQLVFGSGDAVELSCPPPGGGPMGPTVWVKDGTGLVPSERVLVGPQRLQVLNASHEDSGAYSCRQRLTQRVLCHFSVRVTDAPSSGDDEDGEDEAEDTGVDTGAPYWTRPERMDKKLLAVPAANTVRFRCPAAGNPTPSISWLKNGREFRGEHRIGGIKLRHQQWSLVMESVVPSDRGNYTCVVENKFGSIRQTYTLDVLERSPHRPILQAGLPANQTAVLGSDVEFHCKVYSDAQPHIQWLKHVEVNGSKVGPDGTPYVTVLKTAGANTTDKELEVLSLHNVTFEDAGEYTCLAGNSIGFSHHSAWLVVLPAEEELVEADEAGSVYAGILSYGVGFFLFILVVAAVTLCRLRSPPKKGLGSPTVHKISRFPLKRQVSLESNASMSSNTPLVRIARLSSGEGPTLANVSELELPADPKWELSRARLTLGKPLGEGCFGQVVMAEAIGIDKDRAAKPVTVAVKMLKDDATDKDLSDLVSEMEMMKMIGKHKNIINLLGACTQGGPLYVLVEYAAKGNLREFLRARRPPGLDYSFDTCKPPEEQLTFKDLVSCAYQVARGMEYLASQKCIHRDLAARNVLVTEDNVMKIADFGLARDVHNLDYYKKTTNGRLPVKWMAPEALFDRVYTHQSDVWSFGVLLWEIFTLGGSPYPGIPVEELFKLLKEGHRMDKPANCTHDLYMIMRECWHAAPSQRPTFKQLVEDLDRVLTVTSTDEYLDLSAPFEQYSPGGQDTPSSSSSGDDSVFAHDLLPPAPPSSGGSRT
Chain of UniProt Q96PN8 (whole entry, looked up): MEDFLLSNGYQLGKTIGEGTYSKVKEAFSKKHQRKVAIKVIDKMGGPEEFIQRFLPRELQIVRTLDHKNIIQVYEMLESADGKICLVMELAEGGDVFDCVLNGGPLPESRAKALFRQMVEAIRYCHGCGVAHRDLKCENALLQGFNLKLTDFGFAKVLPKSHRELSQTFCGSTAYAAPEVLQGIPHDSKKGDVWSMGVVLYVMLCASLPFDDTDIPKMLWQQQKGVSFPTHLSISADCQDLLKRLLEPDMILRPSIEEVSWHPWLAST
Chain of UniProt Q13164 (whole entry, looked up): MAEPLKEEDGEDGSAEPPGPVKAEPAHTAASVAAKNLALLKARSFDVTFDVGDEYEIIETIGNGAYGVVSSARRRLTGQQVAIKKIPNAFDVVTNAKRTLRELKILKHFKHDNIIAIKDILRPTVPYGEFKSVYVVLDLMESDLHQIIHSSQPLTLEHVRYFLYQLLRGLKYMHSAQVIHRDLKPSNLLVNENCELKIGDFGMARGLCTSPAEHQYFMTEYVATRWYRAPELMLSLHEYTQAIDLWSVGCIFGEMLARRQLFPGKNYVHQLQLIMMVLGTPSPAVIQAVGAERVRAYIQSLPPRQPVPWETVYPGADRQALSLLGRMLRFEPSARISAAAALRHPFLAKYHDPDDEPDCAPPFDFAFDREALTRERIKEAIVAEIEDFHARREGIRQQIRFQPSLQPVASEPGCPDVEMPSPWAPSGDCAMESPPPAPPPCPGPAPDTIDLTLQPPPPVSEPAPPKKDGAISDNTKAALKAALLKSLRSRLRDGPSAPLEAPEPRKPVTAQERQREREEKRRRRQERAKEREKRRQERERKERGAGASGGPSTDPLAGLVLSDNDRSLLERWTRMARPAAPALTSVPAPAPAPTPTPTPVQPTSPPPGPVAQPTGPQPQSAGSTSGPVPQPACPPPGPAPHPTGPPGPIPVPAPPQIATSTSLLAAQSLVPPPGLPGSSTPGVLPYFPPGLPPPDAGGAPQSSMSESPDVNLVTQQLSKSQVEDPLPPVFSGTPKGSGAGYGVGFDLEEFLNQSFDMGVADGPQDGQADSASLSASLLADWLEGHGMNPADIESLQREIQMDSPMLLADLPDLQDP
Chain of UniProt P29597 (whole entry, looked up): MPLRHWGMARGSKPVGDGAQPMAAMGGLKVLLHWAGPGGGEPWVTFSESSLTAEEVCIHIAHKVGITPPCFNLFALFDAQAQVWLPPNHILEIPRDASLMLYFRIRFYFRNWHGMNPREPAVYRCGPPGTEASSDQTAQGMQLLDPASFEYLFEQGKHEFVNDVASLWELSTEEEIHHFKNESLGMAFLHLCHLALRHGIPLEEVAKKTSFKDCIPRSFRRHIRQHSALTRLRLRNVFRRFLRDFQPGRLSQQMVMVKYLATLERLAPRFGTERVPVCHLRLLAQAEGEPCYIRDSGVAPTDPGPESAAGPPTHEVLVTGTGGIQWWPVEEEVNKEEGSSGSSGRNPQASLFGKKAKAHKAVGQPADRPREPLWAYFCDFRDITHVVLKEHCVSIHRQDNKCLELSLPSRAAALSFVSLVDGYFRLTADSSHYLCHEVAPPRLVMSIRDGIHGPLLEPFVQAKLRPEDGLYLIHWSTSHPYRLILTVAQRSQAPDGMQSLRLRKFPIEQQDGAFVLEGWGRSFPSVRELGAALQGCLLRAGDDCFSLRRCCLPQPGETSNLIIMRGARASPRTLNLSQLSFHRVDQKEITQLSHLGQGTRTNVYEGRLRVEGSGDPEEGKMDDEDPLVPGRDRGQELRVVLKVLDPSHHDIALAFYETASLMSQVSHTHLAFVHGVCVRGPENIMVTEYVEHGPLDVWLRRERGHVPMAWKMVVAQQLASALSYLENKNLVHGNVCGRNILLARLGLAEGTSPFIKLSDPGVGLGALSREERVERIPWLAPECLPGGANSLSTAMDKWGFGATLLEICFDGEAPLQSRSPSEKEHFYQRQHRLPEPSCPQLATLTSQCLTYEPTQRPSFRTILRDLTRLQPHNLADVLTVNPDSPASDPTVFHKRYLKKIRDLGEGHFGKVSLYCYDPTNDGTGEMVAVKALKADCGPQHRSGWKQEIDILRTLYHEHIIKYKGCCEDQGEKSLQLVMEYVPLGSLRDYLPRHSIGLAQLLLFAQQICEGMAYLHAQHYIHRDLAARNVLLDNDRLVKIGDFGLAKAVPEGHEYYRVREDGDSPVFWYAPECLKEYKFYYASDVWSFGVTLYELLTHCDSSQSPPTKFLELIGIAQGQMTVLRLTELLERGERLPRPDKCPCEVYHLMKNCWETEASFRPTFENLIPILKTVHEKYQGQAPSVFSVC
Chain of UniProt O95747 (whole entry, looked up): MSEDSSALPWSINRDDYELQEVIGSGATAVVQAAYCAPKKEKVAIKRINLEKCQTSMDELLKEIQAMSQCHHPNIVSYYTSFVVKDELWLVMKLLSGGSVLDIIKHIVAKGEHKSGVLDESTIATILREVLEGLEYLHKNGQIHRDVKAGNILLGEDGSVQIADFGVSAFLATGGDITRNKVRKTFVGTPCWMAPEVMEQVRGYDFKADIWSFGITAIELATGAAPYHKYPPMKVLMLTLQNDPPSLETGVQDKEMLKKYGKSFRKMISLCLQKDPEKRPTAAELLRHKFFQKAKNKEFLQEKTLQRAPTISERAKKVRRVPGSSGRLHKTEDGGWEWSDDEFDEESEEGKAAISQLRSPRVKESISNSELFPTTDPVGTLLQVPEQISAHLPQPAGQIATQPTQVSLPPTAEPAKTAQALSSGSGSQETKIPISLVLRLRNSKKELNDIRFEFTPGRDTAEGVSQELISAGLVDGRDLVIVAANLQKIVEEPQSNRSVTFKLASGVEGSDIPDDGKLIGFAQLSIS
Chain of UniProt Q8N5S9 (whole entry, looked up): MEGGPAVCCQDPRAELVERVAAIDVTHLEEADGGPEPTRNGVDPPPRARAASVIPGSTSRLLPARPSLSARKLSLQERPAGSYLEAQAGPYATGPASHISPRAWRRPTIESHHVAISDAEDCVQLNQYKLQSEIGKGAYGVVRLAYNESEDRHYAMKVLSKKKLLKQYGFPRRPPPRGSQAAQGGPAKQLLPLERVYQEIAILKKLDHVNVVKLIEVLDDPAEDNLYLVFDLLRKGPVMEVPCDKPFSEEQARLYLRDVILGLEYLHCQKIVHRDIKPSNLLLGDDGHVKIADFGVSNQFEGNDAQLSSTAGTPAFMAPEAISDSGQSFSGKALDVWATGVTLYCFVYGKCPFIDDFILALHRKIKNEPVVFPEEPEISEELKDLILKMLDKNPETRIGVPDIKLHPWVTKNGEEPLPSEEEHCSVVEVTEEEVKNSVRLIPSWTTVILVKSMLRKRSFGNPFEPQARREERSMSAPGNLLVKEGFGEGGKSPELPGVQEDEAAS
Chain of UniProt P15735 (whole entry, looked up): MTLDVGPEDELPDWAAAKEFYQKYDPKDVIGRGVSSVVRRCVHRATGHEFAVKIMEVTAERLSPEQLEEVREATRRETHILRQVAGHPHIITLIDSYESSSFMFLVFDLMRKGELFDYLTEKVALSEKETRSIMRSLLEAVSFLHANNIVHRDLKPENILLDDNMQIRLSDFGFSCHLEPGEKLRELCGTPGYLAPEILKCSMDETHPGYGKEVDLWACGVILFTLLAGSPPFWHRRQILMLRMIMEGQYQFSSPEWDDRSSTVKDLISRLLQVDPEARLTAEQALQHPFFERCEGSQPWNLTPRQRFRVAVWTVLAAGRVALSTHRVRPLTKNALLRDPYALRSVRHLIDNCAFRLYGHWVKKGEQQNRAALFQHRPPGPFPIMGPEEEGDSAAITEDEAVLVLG
Chain of UniProt O00506 (whole entry, looked up): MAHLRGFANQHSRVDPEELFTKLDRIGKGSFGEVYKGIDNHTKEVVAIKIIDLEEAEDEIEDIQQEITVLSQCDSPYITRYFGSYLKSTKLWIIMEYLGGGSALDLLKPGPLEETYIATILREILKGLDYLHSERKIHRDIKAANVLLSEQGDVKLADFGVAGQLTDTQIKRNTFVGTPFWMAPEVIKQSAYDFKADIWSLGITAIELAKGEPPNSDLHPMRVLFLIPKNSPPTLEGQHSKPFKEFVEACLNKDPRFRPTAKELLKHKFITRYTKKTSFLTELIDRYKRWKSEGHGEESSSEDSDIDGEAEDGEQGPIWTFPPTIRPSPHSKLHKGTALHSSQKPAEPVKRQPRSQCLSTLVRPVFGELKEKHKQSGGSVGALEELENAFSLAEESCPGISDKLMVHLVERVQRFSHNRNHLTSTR

Sample 1
Target: Activin receptor type-1 (ACVR1, Homo sapiens, UniProt Q04771)
Observed: enzyme activity
Mode: inhibitor
Tested at: 0.5 µM
Baseline: control
Target sequence (Q04771 1-509): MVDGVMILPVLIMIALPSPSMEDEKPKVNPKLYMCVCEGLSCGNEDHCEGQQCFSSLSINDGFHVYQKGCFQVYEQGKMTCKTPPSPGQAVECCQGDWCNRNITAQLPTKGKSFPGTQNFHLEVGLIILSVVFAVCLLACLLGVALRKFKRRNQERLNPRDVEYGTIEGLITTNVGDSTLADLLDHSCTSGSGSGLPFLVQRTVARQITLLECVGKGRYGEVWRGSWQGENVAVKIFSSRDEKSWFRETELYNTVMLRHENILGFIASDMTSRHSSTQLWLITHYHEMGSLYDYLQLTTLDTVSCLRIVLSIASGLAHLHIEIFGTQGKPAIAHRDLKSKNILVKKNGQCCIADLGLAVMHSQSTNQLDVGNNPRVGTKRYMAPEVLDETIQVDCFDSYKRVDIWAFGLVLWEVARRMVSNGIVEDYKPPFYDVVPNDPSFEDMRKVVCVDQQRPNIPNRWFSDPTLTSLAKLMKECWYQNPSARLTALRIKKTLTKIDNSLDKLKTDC
`Fc1ccc(-c2nc3n(c2-c2ccncc2)CCS3)cc1` gave a remaining activity of 94.2%.
For `CC[n+]1c(/C=C/N(C)c2ccccc2)n(-c2ccccc2)c2ccc(-c3nc4ccccc4s3)cc21`, the remaining activity was 103%.
`O=C1NC(=O)C(c2c[nH]c3ccccc23)=C1c1c[nH]c2ccccc12` gave a remaining activity of 97.1%.
`CC(=O)c1ccc(N2CCOCC2)cc1O` gave a remaining activity of 107%.
The remaining activity of `Cc1ccc(NC2=CC(=O)c3sc(C)nc3C2=O)cc1` is reported as 99.1%.
`O=S(=O)(NCCNC/C=C/c1ccc(Br)cc1)c1cccc2cnccc12` has a remaining activity of 96.4%.
`Oc1ccc(Nc2nc(-c3ccc(Cl)cc3)cs2)cc1` gave a remaining activity of 94.9%.
The remaining activity of `CSc1nc(-c2ccnc(N[C@@H](C)c3ccccc3)c2)c(-c2ccc(F)cc2)[nH]1` (racemic) is reported as 89.3%.
With `Cc1cncc2cccc(S(=O)(=O)N3CCCN(C(=O)CN)C[C@@H]3C)c12` the remaining activity was 95.8%.
For `Nc1nccc(-c2c(-c3ccc(F)cc3)ncn2C2CCNCC2)n1`, the remaining activity was 86.5%.
`Nc1nc(Nc2ccc(S(N)(=O)=O)cc2)nn1C(=O)c1c(F)cccc1F` gave a remaining activity of 104%.

Sample 2
Host: human
Sample: microsomes or S9
Tested at: 2 µM
Time: 0.5 h
`OCCCN(CCO)c1ccc2cccc(Br)c2n1` gave a remaining compound of 8.73%.
For `O=C(CN(CCc1ccccc1)C(=O)CNS(=O)(=O)c1ccccc1)NCC1CCCO1` (stereo not shown), the remaining compound was 7.69%.
The remaining compound of `CC(Oc1ccc(Cl)cc1Cl)C(=O)NCCc1ccccc1` (stereo not shown) is reported as 46.4%.
`CN(n1cnc2ccsc2c1=O)S(C)(=O)=O` has a remaining compound of > 99.9%.
`O=C1NCCNC1Cc1ccc(-c2cccc(F)c2F)cc1` (stereo not shown) has a remaining compound of 79.4%.
The remaining compound of `CCCc1nc(C#N)c(NCc2ccc3c(c2)OCO3)o1` is reported as 4.25%.
`COCCOc1cc(=O)n2c(c1C(=O)NC1CCCCCC1)CCOCC2` gave a remaining compound of 62.1%.
`Cc1c(-c2noc(-c3cnn(C)c3C)c2Cl)cnn1C` gave a remaining compound of 0.201%.
`COC(=O)C(O)c1cnc2c(c1-c1ccc(Cl)cc1)C(C)(C)CN(Cc1ccc(OC)cc1)C2=O` (stereo not shown) gave a remaining compound of 80.3%.
`Cn1c(-c2c(N)n(C3CCCC3)c3nc4ccccc4nc23)nc2ccccc21` gave a remaining compound of > 99%.
The remaining compound of `COc1cc(-c2csc(N)n2)cc(Br)c1O` is reported as 44.9%.
The remaining compound of `CS(=O)(=O)c1nc(-c2ccc(Br)cc2)n[nH]1` is reported as 89.9%.
With `Cc1ccc(C2c3nc[nH]c3CCN2C(=O)Nc2ccc(C#N)cc2)cc1F` (stereo not shown) the remaining compound was 39.9%.
With `CCS(=O)(=O)c1nc(S(=O)(=O)c2ccc(Cl)cc2)c(NC2CCCC2)s1` the remaining compound was 21.6%.

Sample 3
Cell line: mouse MPNST tumor cells
Technique: high-content nuclear imaging
Measured: cell number
Tested at: 10 µM
Time: 12 h
Notes: mean of 2 replicates
Baseline: plate mean
Direction: higher = more cells
`O=C(O)CCCC[C@@H]1SC[C@@H]2NC(=O)N[C@@H]21` has a nuclei count of 2.92 z-score.
`O=C(O)c1n[nH]c2c1CC1CC21` (stereo not shown) gave a nuclei count of 2.57 z-score.
`Cc1ccc(S(=O)(=O)NC2c3ccccc3Oc3ccccc32)cc1` gave a nuclei count of 0.0552 z-score.
For `CC=CC1=C(C(=O)O)N2C(=O)[C@@H](NC(=O)[C@H](N)c3ccc(O)cc3)[C@H]2SC1`, the nuclei count was 0.525 z-score.
`COc1cc(Oc2ccnc3cc(OC)c(OC)cc23)ccc1NC(=O)NC(C)c1nccs1` (stereo not shown) has a nuclei count of 1.27 z-score.
With `CCCc1ncc(C[n+]2ccccc2C)c(N)n1` the nuclei count was 1.23 z-score.
For `CC(C)C[C@H](NC(=O)[C@@H](O)[C@H](N)Cc1ccccc1)C(=O)O`, the nuclei count was 0.499 z-score.
For `N=c1nc(N2CCCCC2)cc(N)n1O`, the nuclei count was 1.1 z-score and 2.51 z-score.
`COc1cc(Br)c(S(=O)(=O)Nc2ccc(C(F)(F)F)c(OC3CCN(C)C3)c2)cc1OC` (stereo not shown) has a nuclei count of 2.96 z-score.
The nuclei count of `CN1CCC(=C2c3ccccc3Sc3ccccc32)CC1` is reported as 1.99 z-score.
`O=C1CCc2cc(OCCCCc3nnnn3C3CCCCC3)ccc2N1` gave a nuclei count of 0.222 z-score and -0.173 z-score.
With `CNCCc1ccccn1` the nuclei count was 1.62 z-score.
The nuclei count of `CO/N=C1\CN(c2nc3c(cc2F)c(=O)c(C(=O)O)cn3C2CC2)CC1CN` (stereo not shown) is reported as 1.15 z-score.
The nuclei count of `CC[S+]([O-])c1nc(-c2cccc(OCc3ccccc3)c2)cc(C(F)(F)F)n1` (stereo not shown) is reported as -3.22 z-score.

Sample 4
SMILES: Nc1cnc(N2CCc3cc(S(=O)(=O)Nc4c(F)cc(Cl)cc4F)cc(N4CCCC4=O)c32)nc1
Observed: cell-free assay
Technique: competition with immobilised ligand
Tested at: 1 µM
PIK3CG (Homo sapiens, UniProt P48736) — remaining binding: 81%.
TSSK3 (Homo sapiens, UniProt Q96PN8) — remaining binding: 100%.
For MAPK7 (Homo sapiens, UniProt Q13164): remaining binding read 100%.
The remaining binding was 61% (MAP4K4 (Homo sapiens, UniProt O95819)).
It gave 100% for remaining binding (COQ8B (Homo sapiens, UniProt Q96D53)).
The remaining binding was 100% (Non-receptor tyrosine-protein kinase TYK2, JH2 (TYK2, Homo sapiens, UniProt P29597)).
The remaining binding was 100% (MAP3K13 (Homo sapiens, UniProt O43283)).
For STK25 (Homo sapiens, UniProt O00506): remaining binding read 88%.
For FGFR3 (Homo sapiens, UniProt P22607, G697C): remaining binding read 89%.
For MAPK15 (Homo sapiens, UniProt Q8TD08): remaining binding read 84%.
It gave 75% for remaining binding (OXSR1 (Homo sapiens, UniProt O95747)).
PHKG2 (Homo sapiens, UniProt P15735) — remaining binding: 100%.
For CAMKK1 (Homo sapiens, UniProt Q8N5S9): remaining binding read 100%.

Some of these lines once more (sample 2):
The remaining compound of `CC(Oc1ccc(Cl)cc1Cl)C(=O)NCCc1ccccc1` (stereo not shown) is reported as 46.4%.
`COCCOc1cc(=O)n2c(c1C(=O)NC1CCCCCC1)CCOCC2` gave a remaining compound of 62.1%.
`OCCCN(CCO)c1ccc2cccc(Br)c2n1` gave a remaining compound of 8.73%.
With `CCS(=O)(=O)c1nc(S(=O)(=O)c2ccc(Cl)cc2)c(NC2CCCC2)s1` the remaining compound was 21.6%.
`Cc1c(-c2noc(-c3cnn(C)c3C)c2Cl)cnn1C` gave a remaining compound of 0.201%.
The remaining compound of `CCCc1nc(C#N)c(NCc2ccc3c(c2)OCO3)o1` is reported as 4.25%.
`Cn1c(-c2c(N)n(C3CCCC3)c3nc4ccccc4nc23)nc2ccccc21` gave a remaining compound of > 99%.
